Measurements from different studies.
Parts stem from different laboratories: compare values within a part only. Several values in a cell are separate wells, animals, samples, runs or records.
Sequence of UniProt P34947 (whole entry, looked up): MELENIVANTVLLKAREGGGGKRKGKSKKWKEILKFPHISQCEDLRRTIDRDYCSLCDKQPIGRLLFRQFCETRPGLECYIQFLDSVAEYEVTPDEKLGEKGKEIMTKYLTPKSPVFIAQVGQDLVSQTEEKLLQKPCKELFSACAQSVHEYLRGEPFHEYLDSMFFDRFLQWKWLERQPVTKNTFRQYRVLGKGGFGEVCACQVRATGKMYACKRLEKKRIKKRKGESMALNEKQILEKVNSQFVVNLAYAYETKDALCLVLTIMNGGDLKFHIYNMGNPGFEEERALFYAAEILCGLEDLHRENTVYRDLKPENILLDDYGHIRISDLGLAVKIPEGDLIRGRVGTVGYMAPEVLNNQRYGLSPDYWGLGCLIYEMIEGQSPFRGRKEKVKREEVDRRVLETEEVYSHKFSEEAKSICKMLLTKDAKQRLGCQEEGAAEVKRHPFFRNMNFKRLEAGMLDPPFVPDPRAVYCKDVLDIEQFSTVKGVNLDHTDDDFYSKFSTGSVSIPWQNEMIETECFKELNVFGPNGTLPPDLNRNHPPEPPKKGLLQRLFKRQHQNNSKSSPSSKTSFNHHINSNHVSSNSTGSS
Sequence of UniProt Q9H2G2 (whole entry, looked up): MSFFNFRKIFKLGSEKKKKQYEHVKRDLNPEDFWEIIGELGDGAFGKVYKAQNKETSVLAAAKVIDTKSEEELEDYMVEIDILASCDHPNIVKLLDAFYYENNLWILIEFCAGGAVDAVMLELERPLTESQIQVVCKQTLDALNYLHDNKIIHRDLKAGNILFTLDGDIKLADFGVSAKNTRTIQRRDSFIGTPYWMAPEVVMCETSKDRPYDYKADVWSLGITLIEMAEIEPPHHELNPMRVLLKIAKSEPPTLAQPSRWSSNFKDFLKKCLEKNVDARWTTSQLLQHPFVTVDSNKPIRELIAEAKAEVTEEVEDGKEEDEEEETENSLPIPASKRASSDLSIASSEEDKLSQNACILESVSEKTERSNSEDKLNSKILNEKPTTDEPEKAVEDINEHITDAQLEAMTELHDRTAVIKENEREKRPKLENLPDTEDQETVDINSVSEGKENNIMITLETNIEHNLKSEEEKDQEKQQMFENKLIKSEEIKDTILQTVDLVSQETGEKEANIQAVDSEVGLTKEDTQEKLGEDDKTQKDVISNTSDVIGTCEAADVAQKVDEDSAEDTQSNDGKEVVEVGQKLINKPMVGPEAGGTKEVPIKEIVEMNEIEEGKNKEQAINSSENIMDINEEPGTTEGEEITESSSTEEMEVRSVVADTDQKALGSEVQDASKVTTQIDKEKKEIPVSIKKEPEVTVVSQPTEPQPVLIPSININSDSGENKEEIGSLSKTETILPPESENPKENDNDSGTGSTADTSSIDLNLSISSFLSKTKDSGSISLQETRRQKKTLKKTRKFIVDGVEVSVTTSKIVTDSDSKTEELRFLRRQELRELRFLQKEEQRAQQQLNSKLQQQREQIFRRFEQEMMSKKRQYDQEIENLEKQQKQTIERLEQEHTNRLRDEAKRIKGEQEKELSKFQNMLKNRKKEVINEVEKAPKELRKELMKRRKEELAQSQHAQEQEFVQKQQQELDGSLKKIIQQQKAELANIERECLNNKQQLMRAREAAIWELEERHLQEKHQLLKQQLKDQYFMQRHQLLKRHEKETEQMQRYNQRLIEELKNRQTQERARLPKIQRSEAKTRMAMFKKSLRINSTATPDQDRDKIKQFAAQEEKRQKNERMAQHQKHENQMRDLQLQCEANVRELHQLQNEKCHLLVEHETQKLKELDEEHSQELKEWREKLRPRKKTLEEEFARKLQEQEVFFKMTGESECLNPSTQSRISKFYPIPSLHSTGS
Sequence of UniProt P50613 (whole entry, looked up): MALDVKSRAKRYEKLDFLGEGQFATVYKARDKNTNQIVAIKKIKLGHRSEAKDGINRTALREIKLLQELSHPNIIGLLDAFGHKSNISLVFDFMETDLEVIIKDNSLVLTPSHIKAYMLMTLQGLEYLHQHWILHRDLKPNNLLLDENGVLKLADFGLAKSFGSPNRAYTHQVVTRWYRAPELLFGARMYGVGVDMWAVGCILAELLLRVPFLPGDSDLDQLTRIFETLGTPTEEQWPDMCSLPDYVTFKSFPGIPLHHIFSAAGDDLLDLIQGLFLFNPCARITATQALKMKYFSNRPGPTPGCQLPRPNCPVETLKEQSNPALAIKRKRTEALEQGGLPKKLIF
Sequence of UniProt P19784 (whole entry, looked up): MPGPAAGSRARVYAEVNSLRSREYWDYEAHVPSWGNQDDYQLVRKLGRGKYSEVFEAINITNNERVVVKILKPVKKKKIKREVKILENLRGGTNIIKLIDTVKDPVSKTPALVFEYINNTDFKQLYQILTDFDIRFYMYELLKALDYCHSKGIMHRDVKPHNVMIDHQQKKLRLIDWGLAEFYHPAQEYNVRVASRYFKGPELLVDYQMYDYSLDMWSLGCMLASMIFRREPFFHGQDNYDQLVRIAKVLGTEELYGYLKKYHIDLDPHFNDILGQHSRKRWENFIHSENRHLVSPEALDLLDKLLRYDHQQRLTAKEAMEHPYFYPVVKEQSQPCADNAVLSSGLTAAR

Set 1 — observed: binding; action: competitor; method: NanoBRET; cells: HEK293
Structure (SMILES): Cn1cnc(Cn2ccc3ccc(CNCc4[nH]c5ccccc5c4[C@H]4NC(=O)c5ccc(O)cc54)cc32)c1
KRAS G12C: GTPase KRas (KRAS, Homo sapiens, UniProt P01116, G12C)
KRAS: GTPase KRas (KRAS, Homo sapiens, UniProt P01116)
| target | tested at | time | relative to | normalized BRET |
| --- | --- | --- | --- | --- |
| KRAS G12C | 741 nM | 1 h | vehicle and 20 µM BI compound | 49.9% and 54.4% and 57.1% and 51.9% |
| KRAS G12C | 3.05 nM | 3 h | vehicle and 20 µM BI compound | 100% and 84.8% and 114% and 88.8% |
| KRAS | 6.67 µM |  |  | 3.27% and 2.4% and 3.59% and 2.87% |
| KRAS G12C | 20 µM | 4 h | vehicle and 20 µM BI compound | 0.36% and 0.58% and 1.71% and -2.64% |
| KRAS G12C | 2.22 µM | 3 h | vehicle and 20 µM BI compound | 13.8% and 14.3% and 15.3% and 14.7% |
| KRAS G12C | 741 nM | 2 h | vehicle and 20 µM BI compound | 42% and 47.2% and 46.5% and 47.7% |
| KRAS | 27.4 nM |  |  | 82.6% and 100% and 104% and 93.5% |
| KRAS G12C | 27.4 nM | 2 h | vehicle and 20 µM BI compound | 108% and 111% and 101% and 112% |
| KRAS | 82.2 nM |  |  | 83.3% and 135% and 100% and 99.5% |
| KRAS G12C | 247 nM | 1 h | vehicle and 20 µM BI compound | 85% and 89.9% and 90.2% |

Set 2 — observed: ATPase activity; tested at: concentration not given; setting: average; with: with ssDNA
Target: DNA polymerase theta, helicase domain (POLQ, Homo sapiens, UniProt O75417)
Sequence of UniProt O75417 (whole entry, looked up): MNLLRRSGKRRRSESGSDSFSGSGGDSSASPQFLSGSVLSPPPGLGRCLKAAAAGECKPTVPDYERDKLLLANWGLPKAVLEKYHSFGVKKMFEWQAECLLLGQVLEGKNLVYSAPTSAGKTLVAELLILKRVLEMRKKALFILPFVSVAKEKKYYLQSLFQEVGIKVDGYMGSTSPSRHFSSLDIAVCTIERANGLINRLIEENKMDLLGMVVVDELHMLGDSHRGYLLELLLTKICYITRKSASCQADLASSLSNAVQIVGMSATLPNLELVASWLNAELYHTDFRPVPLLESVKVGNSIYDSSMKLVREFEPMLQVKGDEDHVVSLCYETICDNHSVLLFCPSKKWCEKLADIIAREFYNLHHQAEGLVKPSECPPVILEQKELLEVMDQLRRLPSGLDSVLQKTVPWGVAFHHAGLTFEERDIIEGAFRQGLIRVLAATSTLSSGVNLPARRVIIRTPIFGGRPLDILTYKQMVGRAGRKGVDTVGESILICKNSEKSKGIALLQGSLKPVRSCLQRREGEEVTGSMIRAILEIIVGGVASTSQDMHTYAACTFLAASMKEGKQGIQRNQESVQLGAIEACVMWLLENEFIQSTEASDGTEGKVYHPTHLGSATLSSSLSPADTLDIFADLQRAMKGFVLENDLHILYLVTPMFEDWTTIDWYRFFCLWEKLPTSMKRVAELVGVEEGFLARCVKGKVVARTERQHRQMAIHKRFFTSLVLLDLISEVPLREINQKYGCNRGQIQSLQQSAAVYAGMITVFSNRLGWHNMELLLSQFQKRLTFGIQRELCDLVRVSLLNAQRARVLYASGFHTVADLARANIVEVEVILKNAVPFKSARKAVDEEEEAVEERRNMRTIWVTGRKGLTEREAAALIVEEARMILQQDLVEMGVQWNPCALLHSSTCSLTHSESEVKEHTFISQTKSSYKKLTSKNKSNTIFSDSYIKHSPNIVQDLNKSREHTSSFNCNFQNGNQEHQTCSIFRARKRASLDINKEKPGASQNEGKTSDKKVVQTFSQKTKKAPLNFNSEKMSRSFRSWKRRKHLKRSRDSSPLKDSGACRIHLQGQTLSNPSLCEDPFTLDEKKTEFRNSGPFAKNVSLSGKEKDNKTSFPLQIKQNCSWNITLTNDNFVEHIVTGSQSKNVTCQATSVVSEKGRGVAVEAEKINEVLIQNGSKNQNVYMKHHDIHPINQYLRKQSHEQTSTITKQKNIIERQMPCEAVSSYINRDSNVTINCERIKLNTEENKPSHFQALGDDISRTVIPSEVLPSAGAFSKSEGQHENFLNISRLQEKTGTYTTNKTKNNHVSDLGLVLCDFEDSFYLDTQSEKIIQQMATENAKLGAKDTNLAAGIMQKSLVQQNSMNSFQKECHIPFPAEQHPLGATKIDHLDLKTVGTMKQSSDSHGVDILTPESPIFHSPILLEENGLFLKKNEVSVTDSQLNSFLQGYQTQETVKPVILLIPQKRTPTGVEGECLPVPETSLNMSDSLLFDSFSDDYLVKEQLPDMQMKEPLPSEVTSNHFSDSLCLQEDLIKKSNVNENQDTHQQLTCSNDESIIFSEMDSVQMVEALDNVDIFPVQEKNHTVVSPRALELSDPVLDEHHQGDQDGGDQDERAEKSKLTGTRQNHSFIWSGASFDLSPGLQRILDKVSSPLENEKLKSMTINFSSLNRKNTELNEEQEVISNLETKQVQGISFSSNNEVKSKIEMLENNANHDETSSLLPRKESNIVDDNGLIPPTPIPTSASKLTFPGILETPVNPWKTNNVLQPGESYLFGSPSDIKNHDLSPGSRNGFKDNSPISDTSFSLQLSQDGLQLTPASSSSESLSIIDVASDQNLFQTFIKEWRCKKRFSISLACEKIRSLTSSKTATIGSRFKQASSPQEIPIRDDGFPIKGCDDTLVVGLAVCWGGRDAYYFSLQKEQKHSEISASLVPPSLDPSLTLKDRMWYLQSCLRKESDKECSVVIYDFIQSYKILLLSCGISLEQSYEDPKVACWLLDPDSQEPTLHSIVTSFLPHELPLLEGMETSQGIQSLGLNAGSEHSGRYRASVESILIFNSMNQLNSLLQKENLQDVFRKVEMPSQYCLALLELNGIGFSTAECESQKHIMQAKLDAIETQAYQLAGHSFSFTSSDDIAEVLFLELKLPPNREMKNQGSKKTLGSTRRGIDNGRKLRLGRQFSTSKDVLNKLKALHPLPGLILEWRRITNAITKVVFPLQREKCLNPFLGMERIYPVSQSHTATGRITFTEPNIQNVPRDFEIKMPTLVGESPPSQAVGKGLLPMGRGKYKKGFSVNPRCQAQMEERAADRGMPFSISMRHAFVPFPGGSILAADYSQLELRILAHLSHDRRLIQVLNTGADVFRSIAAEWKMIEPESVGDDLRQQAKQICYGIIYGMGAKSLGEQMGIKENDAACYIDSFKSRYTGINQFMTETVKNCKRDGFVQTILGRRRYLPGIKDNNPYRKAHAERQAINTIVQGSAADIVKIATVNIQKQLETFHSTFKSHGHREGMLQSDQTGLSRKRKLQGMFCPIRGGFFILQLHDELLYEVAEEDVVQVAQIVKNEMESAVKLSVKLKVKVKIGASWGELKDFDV
| SMILES | remaining activity |
| --- | --- |
| Cc1ccccc1C(=O)Nc1sc2c(c1C(=O)O)CCC(C(C)(C)C)C2 (centres unmarked) | 65.8% |
| CCCCCCCCCCC/C=C\C(C)(C)/C=C\CCCC(=O)O | 97.8% |
| CCc1ccc(/C=C2/SC(=S)NC2=O)cc1 | 46.6% |
| O=C(Nc1cc(-c2ccccc2)sc1C(=O)O)c1cccc(F)c1 | 60.7% |
| N#CSc1cc(SC#N)c(N)nc1N | 25.6% |
| C[C@H]1[C@H](C)CC[C@]2(C(=O)O)CC[C@]3(C)C(=CC[C@@H]4[C@@]5(C)C[C@@H](O)[C@H](O)[C@@](C)(CO)[C@@H]5CC[C@]43C)[C@H]12 | 56.2% |
| COc1cc2c(cc1Cc1cccc(Cl)c1F)c(=O)c(C(=O)O)cn2[C@H](CO)C(C)C | 81.4% |
| O=C(CSc1ncc(S(=O)(=O)c2ccc(Br)cc2)c(=O)[nH]1)NCc1ccc(Cl)cc1 | 56.3% |

Set 3 — SMILES: COc1ccc(-c2cnc3c(-c4ccsc4)cnn3c2)cc1; observed: enzyme activity; action: inhibitor; tested at: 0.5 µM; relative to: control
| target | remaining activity |
| --- | --- |
| Cyclin-dependent kinase 2, with cyclin A (CDK2, Homo sapiens, UniProt P24941) | 83% |
| PTK2B (Homo sapiens, UniProt Q14289) | 81.8% |
| DYRK4 (Homo sapiens, UniProt Q9NR20) | 129% |
| CSNK2A2 (Homo sapiens, UniProt P19784) | 87.3% |
| PRKD1 (Homo sapiens, UniProt Q15139) | 95.1% |
| ROS1 (Homo sapiens, UniProt P08922) | 98.8% |
| GRK5 (Homo sapiens, UniProt P34947) | 97.4% |
| MAP3K8 (Homo sapiens, UniProt P41279) | 105% |
| NTRK3 (Homo sapiens, UniProt Q16288) | 49.8% |
| ROCK2 (Homo sapiens, UniProt O75116) | 90.4% |
| Aurora kinase A (AURKA, Homo sapiens, UniProt O14965) | 68% |
| CAMK1G (Homo sapiens, UniProt Q96NX5) | 100% |
| BRSK1 (Homo sapiens, UniProt Q8TDC3) | 81.5% |
| PKN2 (Homo sapiens, UniProt Q16513) | 107% |
| SLK (Homo sapiens, UniProt Q9H2G2) | 86.3% |
| EGFR (Homo sapiens, UniProt P00533) | 92.3% |
| DMPK (Homo sapiens, UniProt Q09013) | 100% |
| NEK9 (Homo sapiens, UniProt Q8TD19) | 90.3% |
| CDK7 (Homo sapiens, UniProt P50613) | 100% |
| RET (Homo sapiens, UniProt P07949) | 92% |
| CAMK1D (Homo sapiens, UniProt Q8IU85) | 93.5% |
| HIPK3 (Homo sapiens, UniProt Q9H422) | 103% |
| MAP3K2 (Homo sapiens, UniProt Q9Y2U5) | 98.7% |

Set 4 — observed: cell-free assay; method: competition with immobilised ligand; tested at: 1 µM
Compound: CC(=O)N1CCC(c2ccc(C(=O)NC(=N)N)cc2C(F)(F)F)CC1
| target | remaining binding |
| --- | --- |
| FGFR2 (Homo sapiens, UniProt P21802) | 100% |
| STK3 (Homo sapiens, UniProt Q13188) | 100% |
| EPHA5 (Homo sapiens, UniProt P54756) | 99% |
| CLK4 (Homo sapiens, UniProt Q9HAZ1) | 100% |
| CSNK1A1 (Homo sapiens, UniProt P48729) | 92% |
| KIT (Homo sapiens, UniProt P10721, L576P) | 92% |
| CIT (Homo sapiens, UniProt O14578) | 98% |
| MAP2K7 (Homo sapiens, UniProt O14733) | 86% |
| CDKL1 (Homo sapiens, UniProt Q00532) | 100% |

A few entries again (set 3):
| target | remaining activity |
| --- | --- |
| SLK (Homo sapiens, UniProt Q9H2G2) | 86.3% |
| EGFR (Homo sapiens, UniProt P00533) | 92.3% |
| DMPK (Homo sapiens, UniProt Q09013) | 100% |
| NEK9 (Homo sapiens, UniProt Q8TD19) | 90.3% |
| CDK7 (Homo sapiens, UniProt P50613) | 100% |
